Results collected from several papers.
Parts stem from different laboratories: compare values within a part only. Substitutions count along the parent as printed.

Study 1
Target: CCNB1, cyclin fold, Cln2 fusion (human)
Technique: yeast growth competition, sequencing
Sample: yeast
Notes: weak parent motif
Baseline: not given
Reading: higher = stronger binding
Endpoint: normalised enrichment score
Starting sequence: GMNC docking peptide (human); KNAKRNLSSEFAN
KNAKRNMSSEFAN [L7M]: 0.246
KNAPRNLSSEFAN [K4P]: 0.142
KNAKRNLSSEFMN [A12M]: -0.161
KNAKRNLSDEFAN [S9D]: 0.262
KNALRNLSSEFAN [K4L]: 0.117

Study 2
Target: Sal-like protein 4, full length isoform B (SALL4, Homo sapiens, UniProt Q9UJQ4-2, residues 1-616)
Technique: universal PBM
Form: double-stranded DNA, one strand shown
Sample: in vitro
Tested at: not given
Notes: 8-mer, flanks averaged, mean of replicates
Reading: higher = stronger binding
Endpoint: E-score
GCGGATCA: -0.153
AGAGCCCG: -0.361
ATTAATAG: 0.418
CCAGCCAA: -0.157
CTAGACGA: -0.0374
GATCTGAC: -0.0748
TGAGTCAA: 0.0989
GTTACCTA: 0.044
AGCCTCCC: -0.199

Study 3
Target: Phosphate system positive regulatory protein PHO4, full length, GST-tagged (PHO4, Saccharomyces cerevisiae, UniProt P07270, residues 1-312)
Technique: competition protein-binding microarray
Form: double-stranded DNA, one strand shown
Sample: in vitro
Tested at: 2 µM
Notes: whole 60-bp probe, lowest competitor level
Added: Cbf1 competitor, 0.05 µM
Reading: higher = stronger binding
Endpoint: fluorescence intensity
All sequences stand within: … GTCTTGATTCGCTTGACGCTGCTG
Residues (chain): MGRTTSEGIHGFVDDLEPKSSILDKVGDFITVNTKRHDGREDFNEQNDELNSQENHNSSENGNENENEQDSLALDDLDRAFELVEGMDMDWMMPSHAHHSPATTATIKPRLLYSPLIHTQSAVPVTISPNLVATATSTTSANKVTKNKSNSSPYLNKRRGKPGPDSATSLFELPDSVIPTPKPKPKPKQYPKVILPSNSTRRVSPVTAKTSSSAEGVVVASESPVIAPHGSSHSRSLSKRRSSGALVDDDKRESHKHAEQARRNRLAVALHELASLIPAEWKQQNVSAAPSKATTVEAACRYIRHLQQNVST
ACAACCATCTATGATGACGTGTTGACATTATCAAAC: 6280 a.u.
TGTACACATTACTGGCACGCTCTAATAGTTCGTTTA: 8660 a.u.
AAATTACTAAGTTGCTGTGTGGGTGACGCCGTATGA: 4870 a.u.
AAAGCGGTAATTTGGCCTGTGGGTGCAGATATCTAT: 4210 a.u.
CGGGGTTAAGTTTTTCACGTGGGCTGCTTGCAGCAG: 12800 a.u.
TGGTTCAGACTGGATCAGGCAATCAGCGAACAAATG: 2880 a.u.
TGCGCAACAACTTGGAGGGTGGGTGTATGTCTAGAA: 4040 a.u.
AGTGCAGTGGAAAAGCACGCTTACTCTACGGATGAG: 7530 a.u.
CTTCTGTAAATTTGTATTGTGGGTGGACGCGCCCCG: 4700 a.u.

Mixed results
PhoQ, residues 284 288 289 292 302 303 WVSSAF
fold induction (PhoP, residues 12 14 15 18 19 IFFTR (Escherichia coli, UniProt P23836); Sort-seq, measured: YFP reporter; E. coli; PhoQ-PhoP variant library, added: 10 µM Mg2+; baseline: high Mg2+ state, higher = stronger signaling): 1.94
